Results pooled from the literature.
FGFR3: Fibroblast growth factor receptor 3 (FGFR3, Homo sapiens, UniProt P22607)
FGFR3 G697C: Fibroblast growth factor receptor 3 (FGFR3, Homo sapiens, UniProt P22607, G697C)

Structure (SMILES)	target	observed	method	tested at	baseline	remaining binding [%]
Cc1cnc2nc1Nc1cccc(c1)COC/C=C/COCc1cc(ccc1OCCN1CCOCC1)N2	FGFR3	binding	–	0.1 µM	–	87
CC(C)=CC1OC(C)(C)C2C=C3C(=O)C(Cl)=CC(O)C3C3C(O)C4OC4C(=O)C132 (stereo not drawn)	FGFR3	cell-free assay	competition with immobilised ligand	10 µM	–	81
CN1CCN(Cc2ccc(NC(=O)c3cccc(C#Cc4cnc(N)c5ncccc45)c3)cc2C(F)(F)F)CC1	FGFR3	cell-free assay	competition with immobilised ligand	50 nM	–	18
C=CC(=O)N1CCCC(n2c(=O)c3ncccc3n(Cc3ccc(Oc4ccccc4)cc3)c2=O)C1 (stereo not drawn)	FGFR3	cell-free assay	competition with immobilised ligand	1 µM	–	99
Cc1ccc(-c2c(/C=C(\C#N)C(=O)NC(C)C)n(CCCO)c3ncnc(N)c23)cc1	FGFR3 G697C	cell-free assay	competition with immobilised ligand	1 µM	–	100
COc1ccc(NC(=O)Nc2ccc3c(c2)C(=O)N(C(C)CO)CC(C)C(CN(C)Cc2ccc4c(c2)OCO4)O3)cc1 (stereo not drawn)	FGFR3	binding	competition with immobilised ligand	10 µM	–	56
C=CC(=O)N1CCc2ccc(-n3c(=O)ccc4cnc5ccc(-c6cnn(C)c6)cc5c43)cc21	FGFR3	–	KINOMEscan	1 µM	DMSO control	95
CNC1C[S+]2CC[S+]3CC[S+](C1)[Ru-4]321([N]=C=S)[n]2c3ccc(OC)cc3c3c4c(c5cc(F)c[n+]1c5c32)C(=O)NC4=O (stereo not drawn)	FGFR3 G697C	–	KinomeScan	0.1 µM	untreated	100
CNC(=O)C1CCN(c2cc(C)c(F)cc2NC(=O)c2ccc(-c3cc(O)ccc3C)c(C)c2)CC1	FGFR3	binding	competition with immobilised ligand	1 µM	–	100
CCN1CCN(Cc2ccc(C(=O)Nc3ccc(C)c(NCc4cnc5[nH]ccc5c4OC)c3)cc2C(F)(F)F)CC1	FGFR3	binding	competition with immobilised ligand	1 µM	–	32
COc1c(Cl)cccc1Nc1c(-c2ccncc2C#C[C@@]2(C)CCCN2C(=O)/C=C/CN(C)C)[nH]c2c1C(=O)NCC2	FGFR3 G697C	cell-free assay	competition with immobilised ligand	3 µM	–	89
Nc1ncc2c(n1)-c1c([nH]c3ccc(C4=CCOCC4)cc13)CCC2	FGFR3	binding	competition with immobilised ligand	1 µM	–	100
